# Assay results gathered from unrelated publications.
# Parts stem from different laboratories: compare values within a part only.

# Study 1
# Target: Histone acetyltransferase KAT6A, winged helix 2, GST fusion (KAT6A, Homo sapiens, UniProt Q92794, residues 85-181)
# Technique: protein binding microarray
# Molecule type: double-stranded DNA, one strand shown
# Matrix: in vitro
# Concentration: not given
# Notes: 8-mer, flanks averaged, mean of 2 arrays, mostly near background
# Baseline: not given
# Direction: higher = stronger binding
# Residues (chain): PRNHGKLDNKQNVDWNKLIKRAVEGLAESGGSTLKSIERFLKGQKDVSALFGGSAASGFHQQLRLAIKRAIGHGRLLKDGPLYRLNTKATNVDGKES
Oligonucleotide,E-score
AATAATGG,-0.0927
CGGAGATA,0.0947
AATGACGT,-0.135
ACTATGTG,-0.132
GATATCTA,-0.0605
GACCACTC,0.0793
CGCCCTGA,0.139
CTGGGCAA,0.183
AGCTAAAT,-0.0767
CAGTAAAG,-0.1
GAGGCGCA,0.0664
CACCCCAC,0.0166
ATATAAGA,-0.0417
GCTGAGAA,0.0681
ACTCTTGC,-0.169
AATGCGCC,0.149
TAGAGCGA,-0.102
TGGATCCA,0.109
CATAAATA,-0.13
CGGTAGAA,-0.0356

# Study 2
# Target: PABPC1L2, full length, GST fusion (mouse, UniProt A0ABA7IW68)
# Technique: RNAcompete
# Molecule type: RNA
# Matrix: in vitro
# Concentration: 20 nM
# Notes: 7-mer, probes averaged, single round
# Baseline: mean of 7-mers
# Direction: higher = stronger binding
# Construct (chain): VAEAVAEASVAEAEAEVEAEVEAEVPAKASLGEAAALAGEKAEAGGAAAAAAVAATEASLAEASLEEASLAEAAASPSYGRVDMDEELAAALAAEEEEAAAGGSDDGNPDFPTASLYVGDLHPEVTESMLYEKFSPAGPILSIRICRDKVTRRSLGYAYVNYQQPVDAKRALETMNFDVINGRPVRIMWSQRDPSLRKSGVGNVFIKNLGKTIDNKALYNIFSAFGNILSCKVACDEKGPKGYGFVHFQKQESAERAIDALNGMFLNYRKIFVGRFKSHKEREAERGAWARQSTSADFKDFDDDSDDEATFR
Oligonucleotide,7-mer Z-score
CUGAUAG,-0.267
CGCUGCU,-0.266
CUUAUAG,-0.168
GCCCAAU,-0.231
ACUGCAC,-0.126
UCCCGAU,-0.306
ACCACAU,-0.00833
CAGAACA,0.0895
CGGCCAG,-0.0699
CCGUCGU,-0.441
GGGGACG,0.36
CAUCGUC,-0.353
GGCGGAU,0.463
UCCCCAU,-0.411
UAAUAGG,-0.0609
CCAUGGG,-0.148
AUGAGAC,0.102
AACCUAU,0.0587
ACGGAGG,0.119
UCGCCGU,-0.434
CUUGGUC,-0.244
AAGCCAC,-0.151

# Study 3
# Target: Protein C-ets-1 (ETS1, Homo sapiens, UniProt P14921, residues 1-441, full length assumed)
# UniProt P14921, sequence (whole entry, looked up): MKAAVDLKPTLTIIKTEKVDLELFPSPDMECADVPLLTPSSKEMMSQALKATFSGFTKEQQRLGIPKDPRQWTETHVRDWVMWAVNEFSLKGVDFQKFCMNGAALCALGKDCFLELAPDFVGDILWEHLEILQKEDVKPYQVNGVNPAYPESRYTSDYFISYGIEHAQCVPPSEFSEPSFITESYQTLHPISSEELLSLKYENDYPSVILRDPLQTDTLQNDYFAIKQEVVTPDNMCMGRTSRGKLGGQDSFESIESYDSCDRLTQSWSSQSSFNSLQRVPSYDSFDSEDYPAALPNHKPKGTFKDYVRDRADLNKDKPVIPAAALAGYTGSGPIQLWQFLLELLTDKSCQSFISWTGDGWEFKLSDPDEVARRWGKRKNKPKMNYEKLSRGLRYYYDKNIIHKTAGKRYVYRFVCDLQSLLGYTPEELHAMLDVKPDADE
# Technique: protein-binding microarray
# Molecule type: double-stranded DNA, one strand shown
# Matrix: in vitro
# Concentration: not given
# Notes: k-mer, scored over probes, only values ≥0.25
# Direction: higher = stronger binding
Oligonucleotide,E-score
CCGGATAC,0.477
CGGGATGC,0.338
AACCGGAC,0.413
AGTTCCGG,0.473
ACCCGGGA,0.309
ATCCGGTA,0.475
ATACCGGG,0.261
ACCCCGGA,0.378
ACATTTCC,0.446
CACTTTCC,0.322
CAAGGAAG,0.408
AAGTTCCG,0.44
AAGATCCG,0.363
CATCCGGC,0.492
TAGAGGAA,0.285
ATTTTCCG,0.425
AAATTTCC,0.414
CGGCATCC,0.418
CCGGACAC,0.427
CGGATGGA,0.445
CGCTTCCG,0.48
GAATCGGA,0.301
ATACGGAT,0.283
AGAGCGGA,0.334

# Study 4
# Target: Microphthalmia-associated transcription factor, full length (MITF, Homo sapiens, UniProt O75030-10, residues 1-413)
# Technique: protein-binding microarray
# Molecule type: hairpin DNA
# Matrix: in vitro
# Concentration: not given
# Notes: whole hairpin DNA, median over replicate spots
# Baseline: not given
# Direction: higher = stronger binding
Oligonucleotide,median fluorescence
CACTTAGGACGTGATTTTGGTCCTCCAAAATCACGTCCTAAGTGACACTC,6300 a.u.
GAGGCCTAGCACCTGCTGCCTCCTGGCAGCAGGTGCTAGGCCTCACACTC (5mC at 13),5530 a.u.
GAGGCCTAGCACGTGGTGCCTCCTGGCACCACGTGCTAGGCCTCACACTC (5mC at 29),26500 a.u.
GAGGCCCAGCACGTGCTGCCTCCTGGCAGCACGTGCTGGGCCTCACACTC (5mC at 7),20500 a.u.
GAGGCCTAGCCGGTGCTGCCTCCTGGCAGCACCGGCTAGGCCTCACACTC (5mC at 11),5880 a.u.
GAGGCCTAGCACATGCTGCCTCCTGGCAGCATGTGCTAGGCCTCACACTC,11200 a.u.
GAGGCCTACGACGTGCTGCCTCCTGGCAGCACGTCGTAGGCCTCACACTC (5mC at 9 35),6230 a.u.
CACTTATCACGTGATTTTGGTCCTCCAAAATCACGTGATAAGTGACACTC,29600 a.u.
CACTTAGCACGTGATTTTGGTCCTCCAAAATCACGTGCTAAGTGACACTC (5mC at 32),6990 a.u.
CACTTAGCACGCGATTTTGGTCCTCCAAAATCGCGTGCTAAGTGACACTC,9830 a.u.
GAGGCCTAGGACGTGCTGCCTCCTGGCAGCACGTCCTAGGCCTCACACTC,6310 a.u.
GAGGCCTAGCCCGTGCTGCCTCCTGGCAGCACGGGCTAGGCCTCACACTC (5mC at 11),7420 a.u.
CACTTACGACGTGATTTTGGTCCTCCAAAATCACGTCGTAAGTGACACTC,6100 a.u.
CACTTAGCCGGTGATTTTGGTCCTCCAAAATCACCGGCTAAGTGACACTC,5450 a.u.
GAGGCCGAGCACGTGCTGCCTCCTGGCAGCACGTGCTCGGCCTCACACTC (5mC at 38),24400 a.u.
GAGGCCTAGCACGTCGTGCCTCCTGGCACGACGTGCTAGGCCTCACACTC,6520 a.u.

# Study 5
# Target: Interferon regulatory factor 7, full length, phosphomimetic (IRF7, Homo sapiens, UniProt Q92985, residues 1-503, S471D/S472D/S475D/S476D/S477D/S483D/S484D/S487D)
# Technique: protein-binding microarray
# Molecule type: double-stranded DNA, one strand shown
# Matrix: in vitro
# Concentration: 2200 nM top
# Notes: 60-bp whole probe
# Together with: salmon DNA 0.4 mg/ml
# Baseline: random background probes
# Direction: higher = stronger binding
# Shared flanks, not repeated: GCCTAGCAC … GTCTTGATTCGCTTGACGCTGCTG
# Construct (chain): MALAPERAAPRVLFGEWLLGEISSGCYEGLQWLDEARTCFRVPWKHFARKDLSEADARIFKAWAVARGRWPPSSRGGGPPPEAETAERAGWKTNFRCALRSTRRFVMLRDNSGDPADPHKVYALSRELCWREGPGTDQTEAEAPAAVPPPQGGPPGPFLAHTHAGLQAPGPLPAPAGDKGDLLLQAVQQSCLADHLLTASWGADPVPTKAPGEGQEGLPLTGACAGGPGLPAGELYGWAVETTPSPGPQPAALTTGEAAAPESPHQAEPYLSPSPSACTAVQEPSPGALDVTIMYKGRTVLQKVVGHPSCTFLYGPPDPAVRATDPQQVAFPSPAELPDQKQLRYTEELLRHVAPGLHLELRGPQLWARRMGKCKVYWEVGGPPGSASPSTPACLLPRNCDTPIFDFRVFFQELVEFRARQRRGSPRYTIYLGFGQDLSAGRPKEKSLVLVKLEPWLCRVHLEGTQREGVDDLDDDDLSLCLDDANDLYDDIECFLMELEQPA
Oligonucleotide,fitted relative affinity
GACGGTATTGACTATCGGGACGTGCTA,-0.0145 z-score
TTAGGTTTCGGTCTCGGCTAGTGCTAG,6.54 z-score
TGTCATTTTCTCTTATTCTAGTGCTAG,2.71 z-score
GACGGTCTCCTTCTCCTGAGGTGCTAG,0.394 z-score
TTAGATCTCGGTATCGGTTAGTGCTAG,0.602 z-score
GACGGACTGGGATTGGGGACGTGCTAG,-0.599 z-score
GACGGACTGGACTTTCGGGGCGTGCTA,1.21 z-score
TTAGATCTCAGAATCGATTAGTGCTAG,0.0531 z-score
GACGATATCAGTCTCGAGACGTGCTAG,0.568 z-score
TCACCTATAGGTTCAACACTGTGCTAG,0.911 z-score
TTACGACTGCTTTTCCTTTAGTGCTAG,2.69 z-score
TTAGGTCTCGGGTTCGGTTAGTGCTAG,1.35 z-score
GACGATTTCGGGTTTCGAGTCGTGCTA,6.83 z-score
GACGGTATCGGTATCGGGATGTGCTAG,0.518 z-score
TTAGATACCAGTATCGATTAGTGCTAG,0.417 z-score
GACGATGTCAGTTCCGAGACGTGCTAG,0.476 z-score
TCATGGATGTGTTTTAAACTGTGCTAG,0.395 z-score
GACGGTTTCCTTTCCCTAACGTGCTAG,4.65 z-score
GACGATATCACTATCGAGACGTGCTAG,0.646 z-score
TTAGGTAGCGGGACTGGGTTAGTGCTA,-0.837 z-score
TTAGGTCCCGGACTGGGTTAGTGCTAG,-0.834 z-score
GACGGTCTCGGTATCGGCACGTGCTAG,0.266 z-score
TTAGAATTGAGTATCGATTAGTGCTAG,-0.455 z-score
TAAGGTCTCCTTCTCCTTTAGTGCTAG,1.26 z-score
TTAGGACTGGACTTTCGCTTAGTGCTA,3.12 z-score

# Study 6
# Target: RNA binding protein fox-1 homolog 2, RRM domain, GST-SBP tag (RBFOX2, Homo sapiens, UniProt O43251-10, residues 100-194)
# Technique: RNA Bind-n-Seq
# Molecule type: RNA
# Matrix: in vitro
# Concentration: 365 nM
# Notes: natural RNA segment, single round, ends assumed
# Baseline: no-protein control
# Direction: higher = stronger binding
# Shared flanks, not repeated: GGGAGUUCUACAGUCCGACGAUC … UGGAAUUCUCGGGUGCCAA
# Target sequence (chain): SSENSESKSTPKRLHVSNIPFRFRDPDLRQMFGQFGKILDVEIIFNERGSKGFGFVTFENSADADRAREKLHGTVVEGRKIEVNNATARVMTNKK
Oligonucleotide,RBNS enrichment (R)
GGGGGGUUCAAAUGCCAGUGUUGGGCUAGGCCUGGCUAGUAGAAUAGGGUUUAGAUUAUUUGACAGAAGUGCCUCUUAUGCAGACUGCUUCCCUUUGGGUAGCUGUGAUC,0.894
GUACUUUCUGUGGCGUGACCAAUCUUUACUGUUUUUCUAACUACAGAUGUAUGAACAUCCUUGGAGUGCCCACCCAGCACCCAGUGUUGAGUAUUAACCUUACAUUUUAC,0.208
UCCAGCCCUCAAAGUAGUCUCUGUAAAUCGCUGGGAUAGUAUUCAUAUUGUGUCAUCUCAGUGUUAUUUUUAAGUGUUCUGAGUUGCCUAAGUAGAACACUCUCUGAAUC,0.514
GAGUACAGAUGGGGAGGAAGGUUCCAGACUCUCCUCUCACUUUUUUUUUCCUCUCCUAUUCCAACACUUCCUGCUGGGAGAUCUCCACGCCUAUUUUCACCAUUCUCAGG,0.361
GGUUGGGUGGGAAGGAAGGCUGGGGGUUUUGUAAAGUGUCCACUGCUCGUCCUGUUAAUUUUCCUCAAUUUUUCUUCUUCUUCCUUCUGUCCCUCCUGCCUUCCUUCUCU,2.57
UGUCUAAUGAUUUAAAUGUAACCCAAGACUUUAAGUGUGGGUUACUUAAUGUGUUCCUGAAGAGGUUGUGCUUCCUGACAAAUGCUGUCAGGUCAUUAUUUGCUGUAUCA,0.468
CCUGUCUCUGGAAAAAAAAAAAAAAAAAAAAGGAAUAGGUAAAAGGGACAGAGGUGAAAUUUUGAGUGACUUGAGUCUCUUGCAGUCCCUGAUUACACAGAACCUUUCUG,0.474
GAGCCGGGGACCAUGCAGCCCGAAACCUCCAGUCACUGCGCCCGGCAGGAGUCAGGAGCCAGGGACUGUGCAGCCUGGAACCUCCAGUCACUGUGCCCAGCAGGGUGGGC,0.31
AGCUUCUAACCAUUAUGUGCUGAGUAAAUAAUGCUACCUAUGAUUUUAGAACGGAUUUCUCAGGUAUAGGGAGUUGAUUUCUUAAUACUUUUUGAAUUAUGAAAAAUAGC,0.819
UCUCAAUAACUCUAAAAGGGAGGUGCUUGGGAUUAAGGUGACAGUCCACUUGAUCCUUUUCUUUGUUUUAGUGUGAAUUUCAGCAGCUCCAUCUGUCUUCAUGAUUGUAC,0.661
AUUCACAUUGCUGCUCACAAAACAGAACUCGGUGACUUUGUUUUGAUAUAGUUUUGUGGACCAUCUCAAAUUAAAACUAUUUUCUGUAAAAAAUCUAUAGCCAGGAGUUU,0.641
UCACUGUGUAACAUUGGCUCACUUGGUGAGCAUAGGGUUGACUGAUAAAAUGUUUAAUUCCCUUGCUAGCUUGUGAGAAGAAUGAGUUGAUGACAUGCUCCAUACCAGUG,1.27
